Measurements gathered from unrelated publications.
A part holds a random share of what one study measured. Several values in a cell are separate wells, animals, samples, runs or records.

Sample 1 — effect on: enzyme activity; mode: inhibitor; method: radiometric; concentration: 0.5 µM
Target: Serine/threonine-protein kinase 33 (STK33, Homo sapiens, UniProt Q9BYT3)
Sequence of UniProt Q9BYT3 (whole entry, looked up): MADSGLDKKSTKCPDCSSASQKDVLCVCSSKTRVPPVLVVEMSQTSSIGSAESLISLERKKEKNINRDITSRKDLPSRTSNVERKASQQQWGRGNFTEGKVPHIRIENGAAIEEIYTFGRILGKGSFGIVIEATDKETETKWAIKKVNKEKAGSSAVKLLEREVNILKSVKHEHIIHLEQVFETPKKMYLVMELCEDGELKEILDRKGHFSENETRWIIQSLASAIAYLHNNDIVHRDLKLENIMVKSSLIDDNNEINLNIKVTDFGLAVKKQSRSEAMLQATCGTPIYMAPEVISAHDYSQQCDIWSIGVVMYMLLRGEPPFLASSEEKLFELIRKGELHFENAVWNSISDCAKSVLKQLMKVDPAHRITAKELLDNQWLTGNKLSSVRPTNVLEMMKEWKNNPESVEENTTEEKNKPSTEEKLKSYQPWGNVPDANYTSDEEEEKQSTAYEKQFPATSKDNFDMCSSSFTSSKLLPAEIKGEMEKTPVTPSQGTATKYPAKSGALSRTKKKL
SMILES	remaining activity [%]
COc1cccc(-c2cc(=O)c3ccccc3o2)c1N	98.2
c1ccc(-c2n[nH]c3c2oc2ccccc23)cc1	96.5
COc1ccc2c(c1)c(C1=C(c3c[nH]c4ccccc34)C(=O)NC1=O)cn2CCCN(C)C	56.2
CCCNC(=O)Nc1ccc(Oc2ncnc3cc(OC)c(OC)cc23)cc1Cl	88.1
O=C1Nc2ccc(Br)cc2/C1=C/c1cc2c([nH]1)CCCC2	77.3

Sample 2 — organism: Sarcocystis neurona; effect on: parasite growth; concentration: 10 µM; time: 96 h; notes: first screen; relative to: untreated
Compound	log2 fold change
O=C(O)CCCc1ccc(N(CCCl)CCCl)cc1	-0.39
CC[C@]1(O)CC[C@H]2[C@@H]3CCC4=CCCC[C@@H]4[C@H]3CC[C@@]21C	0.33
CCCCCCNC(=O)n1cc(F)c(=O)[nH]c1=O	-3.66
O=c1c2ccccc2[se]n1-c1ccccc1	0.12

Sample 3 — cell line: L929; method: CCK-8
SMILES: CC(C)(C)c1nc(-c2cccc(NS(=O)(=O)c3c(F)cccc3F)c2F)c(-c2ccnc(N)n2)s1
test	setting	viability
necroptosis protection	25 µM, with: TNF-α-induced	71.8%
	25 µM, with: zVAD	64.9% and 69.1% and 66.9% and 66.3% and 66.8%
necroptosis protection	3.125 µM, with: TNF-α-induced	29.2%

Other studies, line by line — cell line: mouse MPNST tumor cells; method: high-content nuclear imaging; item: cell number; concentration: 10 µM; time: 12 h; notes: mean of 2 replicates; relative to: plate mean; direction: higher = more cells
Compound	nuclei count [z-score]
Oc1ccc2c3c1O[C@H]1c4[nH]c5ccccc5c4C[C@@]4(O)[C@@H](C2)N(CC2CC2)CC[C@]314	1.17
Cc1sc2c(c1C)C(c1ccc(Cl)cc1)=N[C@H](CC(=O)OC(C)(C)C)c1nnc(C)n1-2	-0.0248

Repeated from above (other studies, line by line):
Compound	nuclei count [z-score]
Cc1sc2c(c1C)C(c1ccc(Cl)cc1)=N[C@H](CC(=O)OC(C)(C)C)c1nnc(C)n1-2	-0.0248
